# Measurements collected from several papers.
# Parts stem from different laboratories: compare values within a part only.

# Series 1 — method: RNA Bind-n-Seq; molecule type: RNA; sample: in vitro; concentration: not given; reference: input RNA pool; direction: higher = stronger binding
# Target: RING finger protein unkempt homolog, zinc fingers 1-6, GST-SBP tag (UNK, Homo sapiens, UniProt Q9C0B0, residues 30-357)
# Sequence of UniProt Q9C0B0 (30-357, looked up): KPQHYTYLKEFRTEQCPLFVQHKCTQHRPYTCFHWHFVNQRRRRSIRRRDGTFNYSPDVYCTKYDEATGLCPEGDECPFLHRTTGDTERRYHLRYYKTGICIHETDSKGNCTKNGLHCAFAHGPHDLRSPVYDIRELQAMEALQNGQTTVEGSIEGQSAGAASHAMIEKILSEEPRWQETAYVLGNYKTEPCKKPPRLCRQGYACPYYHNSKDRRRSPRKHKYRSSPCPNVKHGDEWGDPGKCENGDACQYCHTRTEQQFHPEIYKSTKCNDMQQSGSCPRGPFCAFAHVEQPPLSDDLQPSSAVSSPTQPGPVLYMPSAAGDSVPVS
# Notes: RNA with constant flanks, human-mouse chimeric sites, ends assumed
# Constant ends, left off below: GGGAGUUCUACAGUCCGACGAUC … CAACAGAGGAUUGAGCAUCA
Oligonucleotide,bound/input enrichment [ratio]
AUCAAAUACUUUGGGGAUAUUAUUAGCGUGGGACAGAGACUGUUGCAAGGAGCUCGGAUCUUAGGGAUUCCAGUUAUCAUAACGGAACAAUACCCUAAAGGACUUGGCAGCACCGUUCAA,0.236
CCCUCCCCGGGCCACCCACCCCUCCCGGCUCCCCGCCGAGAUCCAGGUUUCUUCUUAUUUCAUAGCAAGCCAGAACAAUGUUCUACGCACAUUUUGUCCUCAGUAAACGAGGGCCUCUGG,1.32
GAGUCGAGCAAACUUGAAACAAUUCGUUUUACAAAAAAGCUUCGGUGCACUUGCUUGGCGAUAGCAUUGGGGUUUUAUAGGUUCUGGAAGGAGAACUGACGAUGAUGCUGCCGCUGCUGC,0.188
ACCAUUUCUGAAUACACGGCUUUGUGUGUAGUUCACUUACGGUAUUAAAUUAUUAUUGCCCUUAGUUUAUAAUAAGGAUAAUUGCAUUUAAAGAGGUUACUGAAUGUUACUCUGAAACUU,0.56
GUGUCCUGCUUUCAACUUAAAUCACUGAGGCAUCUCUACUAUUCUGUGAGCAUCAGGACUGUAGCGCUGUGUCACCACAUGAGAGUUGUUAAGCAGCCUUUCUGUGGAGGGUGGGAAUGA,0.117
UCAACAGACAACAUCAAAUACCAGCCUAAGGGGGGUCAGGUACAAAUUGUUACCAAGAAAAUAGACCUAAGCCAUGUGACAUCCAAAUGUGGCUCUCUAAAGAACAUCCGCCACAGGCCA,0.663

# Series 2 — method: Sort-seq; item: YFP reporter; sample: E. coli; notes: PhoQ-PhoP variant library; with: 10 µM Mg2+; reference: high Mg2+ state; direction: higher = stronger signaling
# Substance: PhoQ, residues 284 288 289 292 302 303 ALASRC
target,fold induction
"PhoP, residues 12 14 15 18 19 TQALL (Escherichia coli, UniProt P23836)",7.86
"PhoP, residues 12 14 15 18 19 NYFRM (Escherichia coli, UniProt P23836)",1.27
"PhoP, residues 12 14 15 18 19 QYFSL (Escherichia coli, UniProt P23836)",4.32

# Series 3 — method: universal PBM; molecule type: double-stranded DNA, one strand shown; sample: in vitro; concentration: 600 nM; direction: higher = stronger binding
# Target: Sal-like protein 4, full length isoform A (SALL4, Homo sapiens, UniProt Q9UJQ4, residues 1-1053)
# Sequence of UniProt Q9UJQ4 (whole entry, looked up): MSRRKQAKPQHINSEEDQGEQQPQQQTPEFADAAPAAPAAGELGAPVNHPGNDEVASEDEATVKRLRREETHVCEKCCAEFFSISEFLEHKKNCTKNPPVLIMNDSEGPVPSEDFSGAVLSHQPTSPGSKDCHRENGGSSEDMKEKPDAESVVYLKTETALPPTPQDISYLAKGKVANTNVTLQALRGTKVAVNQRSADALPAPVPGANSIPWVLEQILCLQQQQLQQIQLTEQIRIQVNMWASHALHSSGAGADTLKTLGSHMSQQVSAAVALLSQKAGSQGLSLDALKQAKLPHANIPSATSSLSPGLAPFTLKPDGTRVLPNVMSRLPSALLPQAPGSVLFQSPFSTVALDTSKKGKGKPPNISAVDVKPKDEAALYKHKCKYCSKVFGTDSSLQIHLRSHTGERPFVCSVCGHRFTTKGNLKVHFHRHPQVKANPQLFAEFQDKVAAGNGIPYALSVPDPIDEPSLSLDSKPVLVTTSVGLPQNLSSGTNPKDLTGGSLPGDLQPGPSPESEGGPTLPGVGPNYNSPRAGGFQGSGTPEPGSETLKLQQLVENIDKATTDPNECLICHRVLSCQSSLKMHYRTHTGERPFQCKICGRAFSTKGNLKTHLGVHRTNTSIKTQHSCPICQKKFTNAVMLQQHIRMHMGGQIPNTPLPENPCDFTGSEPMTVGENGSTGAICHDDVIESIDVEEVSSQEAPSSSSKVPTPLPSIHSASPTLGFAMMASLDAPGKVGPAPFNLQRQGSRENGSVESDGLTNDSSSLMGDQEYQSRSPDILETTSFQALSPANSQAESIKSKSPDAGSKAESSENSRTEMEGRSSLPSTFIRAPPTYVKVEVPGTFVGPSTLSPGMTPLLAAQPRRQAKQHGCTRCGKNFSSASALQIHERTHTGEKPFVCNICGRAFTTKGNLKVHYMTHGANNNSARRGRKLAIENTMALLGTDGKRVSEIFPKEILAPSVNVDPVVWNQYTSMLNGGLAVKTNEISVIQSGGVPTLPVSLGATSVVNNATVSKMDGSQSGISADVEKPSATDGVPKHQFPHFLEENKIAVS
# Notes: 8-mer, flanks averaged, mean of replicates
Oligonucleotide,E-score
CTTGTCCC,-0.123
ACACCATA,0.188
GAGGACCC,-0.332
CCGTCATA,0.19
ATAACCAC,0.158

# Series 4 — method: aptamer microarray, sandwich; molecule type: DNA with 2'F-ANA; sample: in vitro; concentration: 200 nM; with: Cy3 exosite-II aptamer, 400 nM; direction: higher = stronger binding; oligonucleotide: GGTTGGTGTGGTTGG
# Target: Prothrombin, mature alpha-thrombin (F2, Homo sapiens, UniProt P00734)
# Notes: whole 15-mer aptamer, many near background
Modification,mean fluorescence intensity [a.u.]
2'F-ANA at 2 5 6 7 9 10 12 14,47.5
2'F-ANA at 1 2 5 10 14 15,48.7
2'F-ANA at 1 2 3 7 10 12 13 15,90.3
2'F-ANA at 1 3 5 7 10 13 14 15,48.4
2'F-ANA at 3 4 6 12 13 15,577
2'F-ANA at 1 3 4 11 12 14 15,173

# Some of these lines once more (series 4):
Modification,mean fluorescence intensity [a.u.]
2'F-ANA at 1 3 5 7 10 13 14 15,48.4
2'F-ANA at 2 5 6 7 9 10 12 14,47.5
